{"data": "Values quoted from earlier work, collected from citations in different studies", "note": "Protocols differ between the studies behind these lines. ± gives the spread as reported.", "UniProt P10635, sequence (whole entry, looked up)": "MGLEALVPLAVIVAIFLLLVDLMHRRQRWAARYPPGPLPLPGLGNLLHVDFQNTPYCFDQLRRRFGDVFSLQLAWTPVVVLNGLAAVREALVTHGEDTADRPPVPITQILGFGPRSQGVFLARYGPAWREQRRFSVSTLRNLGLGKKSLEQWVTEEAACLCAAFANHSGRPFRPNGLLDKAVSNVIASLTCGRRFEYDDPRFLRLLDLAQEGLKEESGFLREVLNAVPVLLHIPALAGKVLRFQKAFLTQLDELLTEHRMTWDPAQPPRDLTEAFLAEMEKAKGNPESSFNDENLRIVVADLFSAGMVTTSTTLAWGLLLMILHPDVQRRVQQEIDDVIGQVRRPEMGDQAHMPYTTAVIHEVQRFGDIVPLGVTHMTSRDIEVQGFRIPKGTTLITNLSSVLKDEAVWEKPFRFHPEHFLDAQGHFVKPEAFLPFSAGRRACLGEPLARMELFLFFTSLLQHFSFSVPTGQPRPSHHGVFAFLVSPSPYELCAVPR", "UniProt P05177, sequence (whole entry, looked up)": "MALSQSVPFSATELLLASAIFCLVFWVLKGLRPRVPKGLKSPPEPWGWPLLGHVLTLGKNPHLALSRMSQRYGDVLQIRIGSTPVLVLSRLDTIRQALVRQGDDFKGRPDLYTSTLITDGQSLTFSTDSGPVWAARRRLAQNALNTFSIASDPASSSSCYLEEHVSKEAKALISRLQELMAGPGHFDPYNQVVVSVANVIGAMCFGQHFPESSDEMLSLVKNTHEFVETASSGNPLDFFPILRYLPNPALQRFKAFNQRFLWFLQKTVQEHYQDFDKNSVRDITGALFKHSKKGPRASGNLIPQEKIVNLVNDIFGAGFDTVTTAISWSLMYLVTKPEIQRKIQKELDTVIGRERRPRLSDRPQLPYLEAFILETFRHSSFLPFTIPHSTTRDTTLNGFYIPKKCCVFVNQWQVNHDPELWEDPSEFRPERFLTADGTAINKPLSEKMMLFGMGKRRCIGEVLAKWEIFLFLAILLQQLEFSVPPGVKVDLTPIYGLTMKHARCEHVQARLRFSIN"}
{"SMILES": "CN1CCN(c2cc(-c3ccccc3CO)c(N(C)C(=O)C(C)(C)c3cc(C(F)(F)F)cc(C(F)(F)F)c3)cn2)CC1", "system": "healthy volunteers, plasma", "setting": "oral, 450 mg, single dose, netupitant alone", "measurement": "Cmax", "value": "93 ng/mL"}
{"SMILES": "COc1ccc(Nc2nccc(-c3c[nH]nc3-c3cccnc3)n2)cc1", "tested on": "Cytochrome P450 1A2 (CYP1A2, Homo sapiens, UniProt P05177)", "setting": "10 µM", "measurement": "inhibition", "value": "84%"}
{"SMILES": "O=C1c2ccccc2-c2c1c1ccc([N+](=O)[O-])cc1c(=O)n2C[C@H](O)[C@@H](O)[C@H](O)[C@H](O)CO", "tested on": "UACC-62", "test": "cell growth", "setting": "melanoma cancer panel", "measurement": "GI50", "value": "2.98 µM"}
{"SMILES": "Cc1ccccc1-c1cc(N2CCNCC2)ncc1N(C)C(=O)C(C)(C)c1cc(C(F)(F)F)cc(C(F)(F)F)c1", "system": "cancer patients, plasma", "setting": "oral, dose not given, netupitant-palonosetron fixed combination, added: cyclophosphamide 500-1000 mg/m^2 IV", "measurement": "AUC(0-inf)", "value": "5990 ng·h/mL"}
{"SMILES": "CC(=O)N1CCC(NC(=O)NC23CC4CC(C)(CC(C2)c2ccccc24)C3)CC1", "tested on": "Cytochrome P450 2D6 (CYP2D6, Homo sapiens, UniProt P10635)", "setting": "10 µM", "measurement": "inhibition", "value": "34 ± 1%"}
{"SMILES": "CC(=O)O[C@H]1C2=C(C(=O)C(OC(=O)c3ccc(C)cc3)=C(C(C)C)C2=O)[C@@]2(C)CCCC(C)(C)[C@@H]2[C@@H]1O", "tested on": "HL-60", "test": "cell growth", "measurement": "GI50", "value": "≤ 5 µM"}
{"SMILES": "COCCOCCOCCOCCC(=O)NCc1cc(CNC(=O)CCOCCOCCOCCOC)cc(-c2cc3cc4nc(c(OC)c5[nH]c(cc6nc(cc2[nH]3)CC6(C)C)cc5-c2cc(CNC(=O)CCOCCOCCOCCOC)cc(CNC(=O)CCOCCOCCOCCOC)c2)CC4(C)C)c1", "system": "PBS", "setting": "room temperature", "measurement": "kic^−1", "value": "6 ns"}
{"SMILES": "C=C[C@@H]1C[C@]1(NC(=O)[C@@H]1C[C@@H](Oc2cc(-c3ccccc3)nc3cc(OC)ccc23)CN1C(=O)[C@@H](NC(=O)OC(C)(C)C)C(C)(C)C)C(=O)NS(=O)(=O)C1CC1", "system": "rat", "setting": "intravenous, 5 mg/kg", "measurement": "clearance", "value": "55 mL/min/kg"}
{"SMILES": "CC(C)C1=C(O)C(=O)C2=C(C1=O)[C@H](O)[C@@H](O)[C@H]1C(C)(C)CCC[C@]21C", "tested on": "MCF7", "test": "cell growth", "measurement": "GI50", "value": "10 to 30 µM"}
{"SMILES": "COc1ccc(Oc2ccc([C@@H](C)N(C)c3ncc4c(N)nc(N)nc4n3)cc2)cc1", "tested on": "MRC-5", "test": "cell growth", "measurement": "active concentration", "value": "5.4 µM"}
{"SMILES": "CCC(=O)OC1=C(C(C)C)C(=O)C2=C(C1=O)[C@@]1(C)CCCC(C)(C)[C@@H]1[C@H](OC(=O)CC)[C@H]2OC(C)=O", "tested on": "MCF7", "test": "cell growth", "measurement": "GI50", "value": "10 to 30 µM"}
{"SMILES": "Cc1cc(N2CC[C@@](C#N)(C3(C)CC3)C2=O)cc(C(=O)NCc2cc(F)cc(-c3cnn(C)c3)c2)n1", "tested on": "ARPE-19", "test": "cytotoxicity", "measurement": "CC50", "value": "0.295 µM"}
{"SMILES": "CC(=O)O[C@H]1C2=C(C(=O)C(O)=C(C(C)C)C2=O)[C@@]2(C)CCCC(C)(C)[C@@H]2[C@@H]1O", "tested on": "MCR5", "test": "cell growth", "measurement": "GI50", "value": "5 to 10 µM"}
{"SMILES": "Cc1ccccc1-c1cc(N2CC[N+](C)([O-])CC2)ncc1N(C)C(=O)C(C)(C)c1cc(C(F)(F)F)cc(C(F)(F)F)c1", "system": "healthy volunteers, plasma", "setting": "oral, 450 mg, single dose, added: palonosetron 0.75 mg", "measurement": "AUC(0-inf)", "value": "2760 ng·h/mL"}
{"SMILES": "CC(=O)O[C@H]1C2=C(C(=O)C(OC(=O)c3ccc([N+](=O)[O-])cc3)=C(C(C)C)C2=O)[C@@]2(C)CCCC(C)(C)[C@@H]2[C@@H]1O", "tested on": "MEL1", "measurement": "GI50", "value": "5 to 10 µM"}
{"SMILES": "O=C1c2ccccc2-c2c1c1ccc([N+](=O)[O-])cc1c(=O)n2C[C@H](O)CO", "tested on": "SN12C", "test": "cell growth", "setting": "renal cancer panel", "measurement": "GI50", "value": "0.241 µM"}
{"SMILES": "CC(C)C1=C(O)C(=O)C2=C(C1=O)[C@H](OC=O)[C@@H](O)[C@H]1C(C)(C)CCC[C@]21C", "tested on": "MCF7", "test": "cell growth", "measurement": "GI50", "value": "5 to 10 µM"}
{"SMILES": "Cc1[nH]nc2c1N=C(c1ccccc1Cl)c1cnc(N3CCOCC3)cc1N2", "tested on": "CYP3A4", "test": "substrate, chemical inhibition", "measurement": "contribution to metabolism", "value": "37.5%"}
